Published values pooled from the literature.
Every numbered part comes from another study and shows a few of its results, in no order.

Study 1
Target: Sal-like protein 4, full length isoform B (SALL4, Homo sapiens, UniProt Q9UJQ4-2, residues 1-616)
Method: universal PBM
Molecule type: double-stranded DNA, one strand shown
Sample: in vitro
Tested at: not given
Setting: 8-mer, flanks averaged, mean of replicates
Direction: higher = stronger binding
Target sequence (chain): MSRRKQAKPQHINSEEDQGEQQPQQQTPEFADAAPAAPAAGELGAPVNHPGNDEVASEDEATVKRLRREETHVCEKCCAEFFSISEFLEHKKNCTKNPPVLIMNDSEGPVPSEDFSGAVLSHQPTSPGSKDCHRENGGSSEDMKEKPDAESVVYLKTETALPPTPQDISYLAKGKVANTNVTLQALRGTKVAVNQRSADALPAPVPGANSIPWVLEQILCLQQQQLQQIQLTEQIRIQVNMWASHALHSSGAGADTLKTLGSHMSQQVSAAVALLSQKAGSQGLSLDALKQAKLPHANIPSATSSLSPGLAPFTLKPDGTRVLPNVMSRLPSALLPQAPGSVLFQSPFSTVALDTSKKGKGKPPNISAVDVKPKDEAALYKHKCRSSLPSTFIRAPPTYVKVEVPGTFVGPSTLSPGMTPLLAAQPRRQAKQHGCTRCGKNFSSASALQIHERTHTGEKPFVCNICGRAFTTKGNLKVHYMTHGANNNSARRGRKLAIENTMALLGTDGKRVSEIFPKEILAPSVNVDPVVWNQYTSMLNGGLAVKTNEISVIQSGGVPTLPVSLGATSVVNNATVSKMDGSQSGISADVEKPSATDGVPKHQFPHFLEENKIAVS
Oligonucleotide	E-score
CCCCGATA	-0.0381
ACAAACAT	0.201
GGACGCAA	-0.174
GATAGAAC	0.118
AGCGGCGG	-0.332
CGACCTAC	-0.296
CGCGAGAG	-0.268
ATCAGGTC	-0.0553
AAGAATGT	0.0837
ACGCTCCG	-0.305
AGATGCCG	-0.222
AACCCGCT	-0.222
GACGGCAC	-0.281
AACCATCG	-0.0308
CGAAGTTC	-0.0165
ACGTTGAG	-0.0223
AAGGGGGA	-0.0711
CGACGGCA	-0.363
CCGACAGC	-0.324
TCATTTAA	0.189
AAGCCCGG	-0.303

Study 2
Target: Prothrombin, mature alpha-thrombin (F2, Homo sapiens, UniProt P00734)
Method: aptamer microarray, sandwich
Molecule type: DNA with 2'F-ANA
Sample: in vitro
Tested at: 200 nM
Setting: whole 15-mer aptamer, many near background
Together with: Cy3 exosite-II aptamer, 400 nM
Direction: higher = stronger binding
Oligonucleotide: GGTTGGTGTGGTTGG
Modification	mean fluorescence intensity
2'F-ANA at 3 6 9 10 11 13 14	357 a.u.
2'F-ANA at 4 6 8 10 12 14 15	61.4 a.u.
2'F-ANA at 1 3 4 6 9 10 11 13 14 15	61 a.u.
2'F-ANA at 2 3 4 5 6 7 8 9 10 11 12 14 15	52.9 a.u.
2'F-ANA at 1 2 3 4 5 6 7 8 9 12 13 15	76.7 a.u.
2'F-ANA at 1 2 5 6 8 9 11 13 14 15	84.1 a.u.
2'F-ANA at 2 3 4 10 15	284 a.u.
2'F-ANA at 1 2 4 5 6 13 15	59.6 a.u.
2'F-ANA at 3 5 6 7 9 10 11 13 15	54.2 a.u.
2'F-ANA at 3 5 6 10 11 14	50.1 a.u.
2'F-ANA at 2 3 4 6 8 13 15	375 a.u.
2'F-ANA at 1 4 6 8 9 11 12	195 a.u.
2'F-ANA at 3 6 7 10 11	539 a.u.
2'F-ANA at 1 2 3 4 8 10 12 13 14	52.1 a.u.
2'F-ANA at 2 4 6 8 12	662 a.u.
2'F-ANA at 3 4 6 8 10 15	230 a.u.
2'F-ANA at 3 5 6 7 8 9 11 12 13	164 a.u.
2'F-ANA at 1 2 6 9 11 13	119 a.u.
2'F-ANA at 1 2 3 5 7 8 11 12	112 a.u.
2'F-ANA at 1 2 3 5 6 9 10 11 12 13 15	115 a.u.
2'F-ANA at 1 3 9 10 12 13 14	62.9 a.u.
2'F-ANA at 1 4 5 6 7 8 12	111 a.u.
2'F-ANA at 1 4 6 7 11 12 13 14	58.9 a.u.
2'F-ANA at 1 3 5 6 8 13 14	45.5 a.u.
2'F-ANA at 1 2 3 4 11 13	125 a.u.

Study 3
Target: PABPC1L2, full length, GST fusion (mouse, UniProt A0ABA7IW68)
Method: RNAcompete
Molecule type: RNA
Sample: in vitro
Tested at: 20 nM
Setting: 7-mer, probes averaged, single round
Reference: mean of 7-mers
Direction: higher = stronger binding
Target sequence (chain): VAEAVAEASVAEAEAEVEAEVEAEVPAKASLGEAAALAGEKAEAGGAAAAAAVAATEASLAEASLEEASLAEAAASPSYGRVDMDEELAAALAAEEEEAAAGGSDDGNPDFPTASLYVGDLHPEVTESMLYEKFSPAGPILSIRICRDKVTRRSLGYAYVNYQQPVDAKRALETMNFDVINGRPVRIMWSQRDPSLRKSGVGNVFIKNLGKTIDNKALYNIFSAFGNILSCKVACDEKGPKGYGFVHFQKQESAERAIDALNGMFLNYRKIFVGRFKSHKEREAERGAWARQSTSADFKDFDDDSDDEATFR
Oligonucleotide	7-mer Z-score
GAAUCCA	-0.0953
GAGAAAA	3.91
CACACGA	0.00798
GCCUGCU	-0.231
ACAUGCG	-0.106
CGUGGUA	-0.079
CGUCACG	-0.19
AAGUCCA	-0.0301
AUAGACU	-0.177
UAUCUAA	-0.0518
UCCUCCC	-0.492
UGCUGGA	0.0152
CCAGCUA	-0.242
AUCUCCG	-0.306
CGGGCAC	0.0261
CAUUUUC	-0.298
CUGGUUU	-0.407
UCAGUUA	-0.271
GGGUUAG	0.0968

Study 4
Target: RNA binding protein fox-1 homolog 2, RRM domain, GST-SBP tag (RBFOX2, Homo sapiens, UniProt O43251-10, residues 100-194)
Method: RNA Bind-n-Seq
Molecule type: RNA
Sample: in vitro
Tested at: 365 nM
Setting: natural RNA segment, single round, ends assumed
Reference: no-protein control
Direction: higher = stronger binding
Shared flanks, not repeated: GGGAGUUCUACAGUCCGACGAUC … UGGAAUUCUCGGGUGCCAA
Construct (chain): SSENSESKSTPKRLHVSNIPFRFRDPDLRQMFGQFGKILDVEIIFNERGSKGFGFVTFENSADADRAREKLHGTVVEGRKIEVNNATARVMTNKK
Oligonucleotide	RBNS enrichment (R)
UCUUGCCUCCCUCACGGGGCGUCACCCCCAGCCCAGCUCCGUUGUACAUAAAUGCCUUGUGGCAGAGCUCCCGGUGAACUUCUGGAUCCCGUUUCUGAUGCAGACUCUUG	0.645
UUCUCCCCAGGUGUACCAUUUUAGCAUAUGCAUUAUGUGAUUGGAAUUGAGGCAUUUUAGUGGACAAUAUCAUAAUUUCUAUCAUGGAAAGUGUAUUUAAUGUCUGUGUC	0.296
CACUGGGAACAAACAGCCUCGCGCUCUAUACCAAACAGCCUCGCGCUCUAUCCCAGUCGCCCAUUAGCUUGAUUCAAACAAAGCCCCAGCAGGCCUUUGCGUUUUUAUCC	0.335
ACAAGUGGGCACCUGCACUACCACUUUUUAGAGGAAAUUCACUCCCUCGUAAGCAUUGGAAGGUCAAAUUAUUUUGAAGUGAUUUUUUUAAAAAAAAGUCUUCUGUUUAU	0.575
UUCCCUCACACACUGUGACUAUUGGGAGACUGCGCCAGUUAGCAGUAGUUCACUCAGCCUUGAUUGUACUGCAAGGGCGAGACAAAAAUAAACGGGAAACGUGCUGUUCA	0.629
UAACUUUGUGCUGAGUUAGACAUCUGUAUUGUCAGUGAUUCUUGUAGAAUAUGUGCUCAGAUCUGAGUUAUAUUUAGUUUUGGAAGGUAAGUUGAAGAGUACUUUUGAUC	0.825
CUGUAGACCAGCUGGCCUCAAACUCAGAAAUCCGCCUGUCUCUGCCUCCCGAGCACUGGGAUUAAAGGUGUGCACCACCACUGUCUGGCUCAGGAAAGCUGUUUUUACAC	0.315
GUUGCUGAUAGCCAGGAAAGAGAGCUUUCGGCCAGGGGAGCAGAGUGGAGACUCCCAUCUUUGGGGAAGCAUAUAUGCUCAAGCGCCUCUACAAAGACAUUCCCUGGCAG	0.387

Study 5
Target: Histone acetyltransferase KAT6A, both winged helices, GST fusion (KAT6A, Homo sapiens, UniProt Q92794, residues 1-181)
Method: protein binding microarray
Molecule type: double-stranded DNA, one strand shown
Sample: in vitro
Tested at: not given
Setting: 8-mer, flanks averaged, mean of 2 arrays, mostly near background
Reference: not given
Direction: higher = stronger binding
Target sequence (chain): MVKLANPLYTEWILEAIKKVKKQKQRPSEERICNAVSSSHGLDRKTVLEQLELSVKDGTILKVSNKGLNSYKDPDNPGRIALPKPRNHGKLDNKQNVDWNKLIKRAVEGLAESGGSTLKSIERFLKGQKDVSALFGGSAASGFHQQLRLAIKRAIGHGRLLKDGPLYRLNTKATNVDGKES
Oligonucleotide	E-score
AAGGGTTA	-0.054
CCGAACCA	0.0625
GAATATAA	-0.0653
GCGAAAAC	0.125
GCAGGAGA	-0.0615
GGCTCTCA	0.0261
TACTCATA	-0.0692
AATGTCGT	-0.131
CCTCACAC	-0.137
GTGCTGAA	-0.142
ACTCGCCA	-0.0875
AAATATTT	-0.139
AACGGGAG	0.134
AGTCGGTG	-0.0897
ATTCATCC	-0.146
AGCCCCAC	-0.229
ACTTCCAA	-0.29

For quick reference, copied from above (study 5):
Oligonucleotide	E-score
ATTCATCC	-0.146
GCGAAAAC	0.125
GAATATAA	-0.0653
GCAGGAGA	-0.0615
AGCCCCAC	-0.229
